{"data": "Results pooled from the literature", "note": "Numbered parts are unrelated; each lists some results of a single study. Changes are numbered by the printed parent chain."}
{"data": "Sample 1", "target": "Ras GTPase-activating protein-binding protein 1, full length (G3BP1, Homo sapiens, UniProt Q13283)", "technique": "RNA Bind-n-Seq", "molecule type": "RNA", "sample": "in vitro", "concentration": "200 nM", "notes": "whole 134-nt RNA, ends assumed", "added": "150 mM KCl", "reference": "input library", "reading": "higher = stronger binding", "sequence of UniProt Q13283 (whole entry, looked up)": "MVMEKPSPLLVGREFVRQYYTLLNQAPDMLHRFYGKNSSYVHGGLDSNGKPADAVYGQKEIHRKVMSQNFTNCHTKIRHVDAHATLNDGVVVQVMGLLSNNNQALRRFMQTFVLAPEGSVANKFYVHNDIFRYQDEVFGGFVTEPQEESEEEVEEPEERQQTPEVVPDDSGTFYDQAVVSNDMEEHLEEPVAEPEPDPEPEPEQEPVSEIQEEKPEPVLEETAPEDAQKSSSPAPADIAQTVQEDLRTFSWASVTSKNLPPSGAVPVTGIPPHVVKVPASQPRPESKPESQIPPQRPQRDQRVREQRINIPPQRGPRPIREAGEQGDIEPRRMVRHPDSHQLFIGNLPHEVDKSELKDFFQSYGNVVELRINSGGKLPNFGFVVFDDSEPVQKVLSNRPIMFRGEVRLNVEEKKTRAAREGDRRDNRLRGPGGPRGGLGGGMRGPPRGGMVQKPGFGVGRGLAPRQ"}
{"Strand": "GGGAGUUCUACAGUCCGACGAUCGUCCUGUGCUACACAUCGUAUGUACCGAAUCGGGGUUUGGGGAGGGGUUUUUUUGGGGAAAGUAUUAUGUUACGCCGUUCGGAUCUGCACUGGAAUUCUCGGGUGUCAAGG", "log2 enrichment": 0.325}
{"Strand": "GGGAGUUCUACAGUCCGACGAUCGUCCUGUGCUACACAUCGUAUGUACCGAAUCGGGGAAAAAAAGGGGUGGGGAAAGGGGAAAGUAUUAUGUUACGCCGUUCGGAUCUGCACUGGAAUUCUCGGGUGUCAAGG", "log2 enrichment": 0.371}
{"Strand": "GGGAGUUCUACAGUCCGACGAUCCUGUGCUACACAUCGUAUGUACCGAAUCGGAAAAAAAGGGGAAAAAAAGGGGAAAAAAAGGGAAAGUAUUAUGUUACGCCGUUCGGAUCUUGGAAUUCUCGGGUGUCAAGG", "log2 enrichment": -0.763}
{"Strand": "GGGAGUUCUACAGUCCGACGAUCCCUGUGCUACACAUCGUAUGUACCGAAUCGGGAAAAAAGGGAAAAAAGGGGAAAAAAGGGAAAGUAUUAUGUUACGCCGUUCGGAUCUGCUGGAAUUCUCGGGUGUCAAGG", "log2 enrichment": -0.577}
{"Strand": "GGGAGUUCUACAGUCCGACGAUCCUCAAGUCCUGUGCUACACAUCGUAUGUACCGAAUCGGAAAGGUUUUUGGAGGAAAGUAUUAUGUUACGCCGUUCGGAUCUGCACUUCCAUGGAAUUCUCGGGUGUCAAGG", "log2 enrichment": -0.554}
{"Strand": "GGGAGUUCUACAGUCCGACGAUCCAAGUCCUGUGCUACACAUCGUAUGUACCGAAUCGGAAAAGGGGAAAAGGAAAAGGAAAGUAUUAUGUUACGCCGUUCGGAUCUGCACUUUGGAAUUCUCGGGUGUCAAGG", "log2 enrichment": -0.943}
{"Strand": "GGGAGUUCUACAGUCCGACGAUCAAGUCCUGUGCUACACAUCGUAUGUACCGAAUCGGGGCCCGGGGCCCGGCCCGGGGAAAGUAUUAUGUUACGCCGUUCGGAUCUGCACUUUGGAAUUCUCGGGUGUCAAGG", "log2 enrichment": -0.899}
{"Strand": "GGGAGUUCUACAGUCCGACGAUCUUGACUAUAUUGUGGAGUAUGACUAUGAUGCUGUACAUGAUGAUGAAUUAACUAUUCGAGUUGGAGAAAUCAUCAGGAAUGUGAAAAAGCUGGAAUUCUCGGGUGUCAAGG", "log2 enrichment": -1.48}
{"Strand": "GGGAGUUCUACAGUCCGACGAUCGCAGGAAGUAAAAACAAAUGGAAAUGCAUCGGAUAGUGGCAGGGGUGGGGGUUGCUAAGGAAAGGGUGGGAUGGGAGUGGGUAAAGAGUUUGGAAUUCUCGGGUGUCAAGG", "log2 enrichment": 1.16}
{"Strand": "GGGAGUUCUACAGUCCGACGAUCCACAGACAACACGCACCCACACAGACACAGAGGGAAGGGGUUGGGAUGGGGACAGGGUGCACAGCAGGGCGGGGUAGGUCCCCAGCCCCUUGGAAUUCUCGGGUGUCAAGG", "log2 enrichment": 1.91}
{"Strand": "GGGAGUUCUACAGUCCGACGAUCCCUCAAGUCCUGUGCUACACAUCGUAUGUACCGAAUCGUGUGUGUGUGUGUGUAAAGUAUUAUGUUACGCCGUUCGGAUCUGCACUUCCAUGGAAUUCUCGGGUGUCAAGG", "log2 enrichment": 0.00369}
{"Strand": "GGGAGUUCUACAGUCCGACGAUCAAGUCCUGUGCUACACAUCGUAUGUACCGAAUCGGGGAAAAAGGGGAGGGGUGGGGAAAGUAUUAUGUUACGCCGUUCGGAUCUGCACUUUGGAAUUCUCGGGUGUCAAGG", "log2 enrichment": 0.526}
{"Strand": "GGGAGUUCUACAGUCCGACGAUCUAACUUUAGAGGAGGAUCUGAUGGAUAUGGCAGUGGACGUAGAUUUGGGGAUGGCUAUAAUGGGUAUGGAGGAGGACCUGGAGGUGGCAAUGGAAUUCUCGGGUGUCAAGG", "log2 enrichment": 0.235}
{"Strand": "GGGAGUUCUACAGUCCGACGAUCCACAGACAACACGCACCCUCACAGACACAGAGGGAAGGGGUUGGGAUGGGGACAGGGUGCACAGCAGGGCGGGGUAGGACCCCAGCCCCUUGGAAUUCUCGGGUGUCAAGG", "log2 enrichment": 2.01}
{"data": "Sample 2", "target": "Interferon regulatory factor 3, full length, phosphomimetic (IRF3, Homo sapiens, UniProt Q14653, residues 1-427, S386D/S396D/S398D/S402D/T404D/S405D)", "technique": "protein-binding microarray", "molecule type": "double-stranded DNA, one strand shown", "sample": "in vitro", "concentration": "2540 nM top", "notes": "60-bp whole probe", "added": "salmon DNA 0.4 mg/ml", "reference": "random background probes", "reading": "higher = stronger binding", "constant ends, left off below": "GCCTAGCAC … GTCTTGATTCGCTTGACGCTGCTG", "Construct (chain)": "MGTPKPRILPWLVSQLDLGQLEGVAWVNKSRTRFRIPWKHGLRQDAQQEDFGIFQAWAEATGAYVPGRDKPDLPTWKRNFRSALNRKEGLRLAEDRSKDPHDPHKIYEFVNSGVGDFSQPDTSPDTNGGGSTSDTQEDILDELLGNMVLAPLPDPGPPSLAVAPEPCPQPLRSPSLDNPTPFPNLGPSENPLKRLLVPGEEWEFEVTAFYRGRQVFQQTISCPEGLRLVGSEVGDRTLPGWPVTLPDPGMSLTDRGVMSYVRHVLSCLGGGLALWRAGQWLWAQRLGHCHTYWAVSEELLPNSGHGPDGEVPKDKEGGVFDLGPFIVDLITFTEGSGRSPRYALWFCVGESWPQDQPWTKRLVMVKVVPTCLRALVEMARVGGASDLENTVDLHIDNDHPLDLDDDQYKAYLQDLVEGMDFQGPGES"}
{"Strand": "GACGGTTTCGGTTGCGGGACGTGCTAG", "fitted relative affinity": "6.45 z-score"}
{"Strand": "GACGATATCAGTTTCGAGAAGTGCTAG", "fitted relative affinity": "3 z-score"}
{"Strand": "GTAGAACTGGGGTATCGATTAGTGCTA", "fitted relative affinity": "-0.448 z-score"}
{"Strand": "TTAGATTTCGGGTTTCGAATAGTGCTA", "fitted relative affinity": "3.08 z-score"}
{"Strand": "GACGAAATCGGGTATCGAGACGTGCTA", "fitted relative affinity": "0.231 z-score"}
{"Strand": "GACGGTATCGGGTATAGGGACGTGCTA", "fitted relative affinity": "1.42 z-score"}
{"Strand": "TTAGAACTGAGTTTCGAATAGTGCTAG", "fitted relative affinity": "1.58 z-score"}
{"Strand": "TCAACTTTGACTTAAGAACTGTGCTAG", "fitted relative affinity": "-0.188 z-score"}
{"Strand": "TCATGTCCCCCTTTTATACTGTGCTAG", "fitted relative affinity": "2.05 z-score"}
{"Strand": "GACGAACTGAGAGTGGAGACGTGCTAG", "fitted relative affinity": "-0.307 z-score"}
{"Strand": "TTCGTTTTGTGTCTGGGCATGTGCTAG", "fitted relative affinity": "0.948 z-score"}
{"Strand": "TTAGGTCTCGGTTTCGGTTCGTGCTAG", "fitted relative affinity": "6.17 z-score"}
{"Strand": "TGAGTCTTCCCTTTTAAGTTGTGCTAG", "fitted relative affinity": "2.02 z-score"}
{"Strand": "TATGGTATGCTCATGACAAAGTGCTAG", "fitted relative affinity": "-0.161 z-score"}
{"Strand": "TCAGGACTGGGGACTGGGTTAGTGCTA", "fitted relative affinity": "-1.04 z-score"}
{"Strand": "TCAAGGCTGTGTTTTCACACTGTGCTA", "fitted relative affinity": "-0.637 z-score"}
{"Strand": "CTGTTTTTGCTTTCTTTATGGTGCTAG", "fitted relative affinity": "2.71 z-score"}
{"Strand": "TTAGATATCAGTTGCGATTAGTGCTAG", "fitted relative affinity": "1.04 z-score"}
{"Strand": "TTAGGTATCGGTATCGGGTAGTGCTAG", "fitted relative affinity": "4.58 z-score"}
{"Strand": "TTAGGTCTCCTTATCCTTGAGTGCTAG", "fitted relative affinity": "2.66 z-score"}
{"Strand": "TGACTTTTGAGAGATGGAAACGTGCTA", "fitted relative affinity": "0.433 z-score"}
{"Strand": "TCTCTTTTTGCTTTCTTTATGTGCTAG", "fitted relative affinity": "2.24 z-score"}
{"Strand": "CTAGATATCGGGTTTCGATTAGTGCTA", "fitted relative affinity": "2.12 z-score"}
{"data": "Sample 3", "target": "CCNB1, cyclin fold, Cln2 fusion (human)", "technique": "yeast growth competition, sequencing", "sample": "yeast", "notes": "weak parent motif", "reference": "not given", "reading": "higher = stronger binding", "parent": "SLBP docking peptide (human); ARYKRKLLINDFG"}
{"Change": "N10F", "normalised enrichment score": 0.224}
{"Change": "A1P", "normalised enrichment score": 0.388}
{"Change": "A1M", "normalised enrichment score": 0.951}
{"Change": "R2W", "normalised enrichment score": 0.491}
{"Change": "F12M", "normalised enrichment score": 0.0695}
{"Change": "I9T", "normalised enrichment score": 1.34}
{"Change": "I9W", "normalised enrichment score": 1.02}
{"Change": "R5C", "normalised enrichment score": 1.32}
{"Change": "G13A", "normalised enrichment score": 0.0123}
{"Change": "L7A", "normalised enrichment score": -0.151}
{"Change": "D11N", "normalised enrichment score": 0.277}
{"Change": "F12A", "normalised enrichment score": 0.465}
{"Change": "F12K", "normalised enrichment score": 0.915}
{"Change": "G13P", "normalised enrichment score": 1.33}
{"Change": "L7D", "normalised enrichment score": 0.506}
{"Change": "D11H", "normalised enrichment score": 0.809}
{"Change": "A1C", "normalised enrichment score": 0.469}
{"Change": "K4Q", "normalised enrichment score": -0.00373}
{"data": "Single results of other studies"}
{"Substance": "PhoQ, residues 284 288 289 292 302 303 SQSLSM", "target": "PhoP, residues 12 14 15 18 19 AQALL (Escherichia coli, UniProt P23836)", "test": "Sort-seq, item: YFP reporter", "system": "E. coli", "conditions": "PhoQ-PhoP variant library, added: 10 µM Mg2+", "scale": "reference: high Mg2+ state, higher = stronger signaling", "quantity": "fold induction", "value": 9.83}
{"note": "For quick reference, copied from above (sample 2):"}
{"Strand": "TTAGATTTCGGGTTTCGAATAGTGCTA", "fitted relative affinity": "3.08 z-score"}
{"Strand": "GACGAAATCGGGTATCGAGACGTGCTA", "fitted relative affinity": "0.231 z-score"}
{"Strand": "GACGGTATCGGGTATAGGGACGTGCTA", "fitted relative affinity": "1.42 z-score"}
{"Strand": "TTAGAACTGAGTTTCGAATAGTGCTAG", "fitted relative affinity": "1.58 z-score"}
